Experimental data pooled from the literature.
Compare with care: the assays were run in different laboratories.
Organism: Klebsiella pneumoniae

CN[C@@H]1[C@H](O)[C@H](NC)[C@H]2O[C@]3(O)[C@H](O[C@@H]2[C@H]1O)O[C@H](C)C[C@H]3NC(=O)Cc1ccc(F)cn1
MIC (microbial growth, broth dilution; ATCC33495): 100 µg/mL

N=C(N)NCCC[C@@H]1NC(=O)[C@@H](CCCNC(=N)N)NC(=O)[C@H](CCCNC(=N)N)NC(=O)[C@@H](C(c2ccccc2)c2ccccc2)NC(=O)[C@@H](C(c2ccccc2)c2ccccc2)NC(=O)[C@@H](C(c2ccccc2)c2ccccc2)NC(=O)[C@@H](CCCNC(=N)N)NC1=O
MIC (ATCC BAA1705, KPC-2 carbapenem-resistant): > 64 µg/mL

CC[C@H](C)[C@H](NC(=O)[C@H](CCCCN)NC(=O)[C@H](CCCCN)NC(=O)[C@H](Cc1c[nH]c2ccccc12)NC(=O)[C@H](Cc1ccccc1)NC(=O)[C@H](CCCCN)NC(=O)[C@H](CCCCN)NC(=O)[C@H](Cc1ccccc1)NC(=O)[C@H](CCCNC(=N)N)NC(=O)[C@@H](N)CCCCN)C(=O)N[C@@H](CCCCN)C(=O)N[C@@H](CC(N)=O)C(=O)N[C@@H](CO)C(=O)N[C@H](C(=O)N[C@@H](CCCCN)C(=O)N[C@@H](CCCCN)C(=O)N[C@@H](CCCNC(=N)N)C(=O)N[C@@H](C)C(=O)N[C@@H](CCCCN)C(=O)N[C@@H](CCCCN)C(=O)N[C@@H](Cc1ccccc1)C(=O)N[C@@H](Cc1ccccc1)C(=O)N[C@@H](CCCNC(=N)N)C(=O)N[C@@H](CCCCN)C(=O)N1CCC[C@H]1C(=O)N[C@@H](CCCNC(=N)N)C(=O)N[C@H](C(=O)N[C@H](C(=O)N[C@@H](C)C(=O)N[C@H](C(=O)N[C@@H](CO)C(=O)N[C@H](C(=O)N1CCC[C@H]1C(=O)N[C@@H](Cc1ccccc1)C(=O)O)[C@@H](C)CC)C(C)C)[C@@H](C)CC)C(C)C)C(C)C
MIC (broth microdilution; polymyxin-resistant): 1.56 to 3.12 µg/mL

CC[C@H](C)[C@H](NC(=O)[C@@H](CCCNC(=N)N)NC(=O)[C@H](CCCNC(=N)N)NC(=O)[C@@H]1CCCN1C(=O)[C@@H]1CCCN1C(=O)[C@H](CCCNC(=N)N)NC(=O)[C@@H]1CCCN1C(=O)[C@H](CCCNC(=N)N)NC(=O)[C@@H]1CCCN1C(=O)[C@H](CC(C)C)NC(=O)[C@H](Cc1c[nH]c2ccccc12)NC(=O)[C@@H]1CCCN1C(=O)[C@@H]1CCCN1C(=O)[C@H](CCCCN)NC(=O)[C@H](CC(=O)O)NC(=O)[C@@H](N)C(C)C)C(=O)N[C@@H](Cc1ccc(O)cc1)C(=O)N[C@@H](CC(N)=O)C(=O)N[C@H](CCCNC(=N)N)C(N)=O
MIC (broth microdilution; DSM 681; 18 h, 37 °C, 25% MHB2): 4 µg/mL

CC1(C)C(NC(=O)C(=NOC2(C(=O)O)CCC2)c2csc(N)n2)C(=O)N1OS(=O)(=O)O (stereo not shown)
MIC (agar dilution; 09-20, NDM-1): 0.25 µg/mL

C#CCOc1ccc(CN[C@@]2(C)C[C@H](O[C@H]3[C@H](Oc4c5cc6cc4Oc4ccc(cc4Cl)[C@@H](O)[C@@H](NC(=O)[C@@H](CC(C)C)NC)C(=O)N[C@@H](CC(N)=O)C(=O)N[C@H]6C(=O)N[C@H]4C(=O)N[C@H](C(=O)N[C@H](C(=O)NCC(N)=O)c6cc(O)cc(O)c6-c6cc4ccc6O)[C@H](O)c4ccc(c(Cl)c4)O5)O[C@H](CO)[C@@H](O)[C@@H]3O)O[C@@H](C)[C@H]2O)cc1OC
MIC (broth microdilution; ATCC 13883, cation-adjusted Mueller-Hinton broth; 18 to 20 h, 37 °C, 0.002% polysorbate 80): > 128 µg/mL

CCCCCCCC(=O)N[C@@H](CCN)C(=O)N[C@H](C(=O)N[C@@H](CCN)C(=O)N[C@H]1CCNC(=O)[C@H]([C@@H](C)O)NC(=O)[C@H](CCN)NC(=O)[C@H](CCN)NC(=O)[C@H](Cc2ccc(F)cc2)NC(=O)[C@@H](CC(C)C)NC(=O)[C@H](CCN)NC1=O)[C@@H](C)O
MIC (broth microdilution; ATCC 13883, colistin-susceptible): 0.25 to 0.5 µg/mL

COc1ccc2ccc(O)c(/C=N/[C@H]3CCCC[C@H]3/N=C/c3cccc(F)c3O)c2c1
MIC (bacterial growth, broth microdilution; carbapenem-resistant): > 40 µM

CCCC[C@H](NC(=O)[C@H](Cc1ccc(O)cc1)NC(=O)[C@@H]1CCCN1C(=O)[C@@H]1CCCN1C(=O)[C@H](CCCCN)NC(=O)[C@H](CC(=O)O)NC(=O)[C@@H](N)C(C)C)C(=O)N1CCC[C@H]1C(=O)N[C@@H](CCCNC(=N)N)C(=O)N1CCC[C@H]1C(=O)N[C@@H](CCCNC(=N)N)C(=O)N1CCC[C@H]1C(=O)N1CCC[C@H]1C(=O)N[C@@H](CCCNC(=N)N)C(=O)N[C@H](CCCNC(=N)N)C(=O)N[C@H](C(=O)N[C@@H](Cc1ccc(O)cc1)C(=O)N[C@@H](CC(N)=O)C(=O)N[C@H](CCCNC(=N)N)C(N)=O)[C@@H](C)CC
MIC (broth microdilution; DSM 681; 18 h, 37 °C, 25% MHB2): 4 µg/mL

CC1(C)[C@H](NC(=O)/C(=N\OCCN)c2nsc(N)n2)C(=O)N1OS(=O)(=O)O
MIC (agar dilution; 09-20, NDM-1): 32 µg/mL
